Assay results collected from several papers.
Protocols differ between the studies behind these lines. Values joined by “and” are separate records of one study, mostly repeats; a detail may differ.

| Compound | assay | system | conditions | half-life |
| --- | --- | --- | --- | --- |
| CC(=O)N[C@H](CC(=O)O)C(=O)N[C@H](Cc1c[nH]c2ccccc12)C(=O)N[C@H](Cc1ccccc1)C(=O)N[C@H](CCCCN)C(=O)N[C@H](C)C(=O)N[C@H](Cc1ccccc1)C(=O)N[C@H](Cc1ccc(O)cc1)C(=O)N[C@H](CC(=O)O)C(=O)N[C@H](CCCCN)C(=O)N[C@@H](C(=O)N[C@H](C)C(=O)N[C@H](CCC(=O)O)C(=O)N[C@H](CCCCN)C(=O)N[C@H](Cc1ccccc1)C(=O)N[C@H](CCCCN)C(=O)N[C@H](CCC(=O)O)C(=O)N[C@H](C)C(=O)N[C@H](Cc1ccccc1)C(N)=O)C(C)C |  | human, statin-treated high-risk CHD, both sexes, plasma | oral, 500 mg daily, day 13, median, detected subjects only | 1.88 h |
| CN1CCC[C@]1(C)/C=C/S(=O)(=O)NC(=O)Nc1c2c(cc3c1CCC3)CCC2 |  | human, plasma | oral, 250 mg single dose | 6.5 h |
| Cc1nc(C)c(C=[N+]([O-])C(C)(C)C)nc1C |  | healthy Chinese human, both sexes, serum | oral, 600 mg twice daily, 7 days | 1.89 h |
| O=C(O)/C=C/c1cccc(S(=O)(=O)Nc2ccccc2)c1 |  | human, mild liver dysfunction, plasma | intravenous, 400 mg/m^2 belinostat, 30 min infusion, cycle 1 day -7 | 2.52 h |
| CCCCCCCOc1ccc(CC[C@](N)(CO)COP(=O)(O)O)cc1C(F)(F)F |  | healthy male humans, plasma | oral, 0.125 to 0.75 mg multiple doses | 380 to 420 h |
| CC(C)(O)c1ncc([S@](N)(=O)=NC(=O)Nc2c3c(cc4c2CCC4)CCC3)s1 |  | healthy human, fasted | oral, 300 mg single dose, spray-dried dispersion | 10.9 h |
| CONC(=O)/C=C/c1cccc(S(=O)(=O)Nc2ccccc2)c1 |  | human, mild liver dysfunction, plasma | intravenous, 400 mg/m^2 belinostat, 30 min infusion, cycle 1 day -7 | 1.34 h |
| Cn1c(=O)oc2ccc(-c3ccc(CC(C#N)NC(=O)C4CNCCCO4)c(F)c3)cc21 (stereo not drawn) |  | human, plasma | 20 mg once daily, day 28, mean | 26.8 h |
| NC(=O)/C=C/c1cccc(S(=O)(=O)Nc2ccccc2)c1 |  | human, severe liver dysfunction, plasma | intravenous, 400 mg/m^2 belinostat, 30 min infusion, cycle 1 day -7 | 8.08 h |
| O=C(CCc1ccc(CNC(C(=O)OC2CCCC2)C2CCCCC2)cn1)NO (stereo not drawn) |  | human, plasma | oral, 50 mg, single dose, geometric mean | 0.366 h |
| Cc1[nH]nc2c1N=C(c1ccccc1Cl)c1cnc(N3CCOCC3)cc1N2 | item: total radioactivity | human male, plasma | oral, 10 mg | 35.5 h and 23.7 h |
| O=C(O)c1cccc(S(=O)(=O)Nc2ccccc2)c1 |  | human, normal liver function, plasma | intravenous, 400 mg/m^2 belinostat, 30 min infusion, cycle 1 day -7 | 4.4 h |

Some of these lines once more:
| Compound | assay | system | conditions | half-life |
| --- | --- | --- | --- | --- |
| Cc1nc(C)c(C=[N+]([O-])C(C)(C)C)nc1C |  | healthy Chinese human, both sexes, serum | oral, 600 mg twice daily, 7 days | 1.89 h |
